Values quoted from earlier work that unrelated publications cite.
Compare with care: the assays were run in different laboratories. Several values in a cell are separate wells, animals, samples, runs or records. Numbers after ± are the reported error. Where no end group is shown, it is not given here. [ ]: non-standard residue; d: D form.
Gastrin-releasing peptide receptor: Gastrin-releasing peptide receptor (Rattus norvegicus, UniProt P52500)
Genome polyprotein NS3 helicase domain: Genome polyprotein, NS3 helicase domain (Hepatitis C virus genotype 1b, UniProt Q9WMX2)
Protein farnesyltransferase: Protein farnesyltransferase (Rattus norvegicus, UniProt Q02293+Q04631)

Substance = C=C(C)[C@@H]1CC[C@]2(NCCN3CCS(=O)(=O)CC3)CC[C@]3(C)[C@H](CC[C@@H]4[C@@]5(C)CC=C(C6=CC[C@@](CF)(C(=O)O)CC6)C(C)(C)[C@@H]5CC[C@]43C)[C@@H]12; tested on = UGT1A1; test = enzyme activity, inhibitor; quantity = IC50; result = 3.9 µM
Substance = COc1c(O[C@@H]2O[C@H](CO)[C@@H](O)[C@H](O)[C@H]2O)cc2c(c1OC)-c1ccc(SC)c(=O)cc1[C@@H](NC(C)=O)CC2; tested on = GABA-A receptor α1β2γ2L; test = GABA-evoked chloride current, competitive antagonist; quantity = IC50; result = 0.2 µM
Substance = Cc1c(O)c(C23CC4CC(CC(C4)C2)C3)cc2c1CC[C@@H]1[C@@H]2CC[C@]2(C)C(=O)CC[C@@H]12; tested on = HT-22; test = cell protection; conditions = with: iodoacetic acid 20 µM; quantity = EC50; result = 0.164 µM
Substance = Nc1nc(N)c2c(n1)[nH]c1cccc(Sc3ccccc3)c12; tested on = EGFR (Homo sapiens, UniProt P00533); test = kinase activity, inhibitor; quantity = IC50; result = 15.1 ± 3.1 µM
Substance = COc1ccc(C2(CNC(=O)C(C)(Cc3c[nH]c4ccccc34)NC(=O)Nc3ccc([N+](=O)[O-])cc3)CCCCC2)nc1 (stereo not drawn); tested on = Gastrin-releasing peptide receptor; quantity = IC50; result = 0.001 ± 0.0002 µM
Substance = Cc1nc2c(O[C@H]3CCOc4cc(F)cc(F)c43)cc(C(=O)N(C)C)cc2[nH]1; tested on = CYP2C19 (Homo sapiens, UniProt P33261); test = enzyme activity, inhibitor; test system = human liver microsomes; quantity = IC50; result = > 30 µM
Substance = O=C(/C=C/c1ccco1)N1CCc2ccccc21; tested on = Nicotinic acetylcholine receptor alpha9/alpha10 (Rattus norvegicus, UniProt P43144+Q9JLB5); test = inhibitor; quantity = IC50; result = 39 µM
Substance = Cc1ccc2nc(-c3ccc4nc(-c5ccc(NC(=O)c6ccc(F)cc6)cc5)sc4c3)sc2c1S(=O)(=O)O; tested on = Genome polyprotein NS3 helicase domain; test = RNA unwinding; quantity = IC50; result = 4.2 ± 2 µM
Substance = O=c1c2ccccc2[se]n1-c1ccccc1; tested on = horseradish peroxidase; test = inhibitor; quantity = IC50; result = ~17 µM and 17 µM
Substance = Cn1cncc1[C@@](N)(c1ccc(Cl)cc1)c1ccc2c(c1)c(-c1cccc(Cl)c1)cc(=O)n2C; tested on = Protein farnesyltransferase; test = inhibitor; conditions = with: lamin B peptide substrate; quantity = IC50; result = 0.00086 µM
Substance = CC(C)=CCC/C(C)=C/COc1c2ccoc2cc2oc(=O)ccc12; tested on = ethoxyresorufin O-dealkylase, mouse; test = enzyme activity, inhibitor; test system = liver; quantity = IC50; result = 0.12 µM
Substance = NS(=O)(=O)c1ccc(-n2nc(C(F)(F)F)cc2-c2ccc(F)cc2F)cc1; tested on = COX-2 (sheep placenta); test = enzyme activity, inhibitor; quantity = IC50; result = 0.5 µM
Substance = O=C(O)c1cccc([C@H]2CCN[C@@H]2C(=O)O)c1; tested on = AMPA receptor (rat); test = binding, [3H]AMPA displacement; test system = rat synaptosomes; quantity = IC50; result = 51 µM
Substance = Cc1ccc(Sc2cccc3[nH]c4nc(N)nc(N)c4c23)cc1; tested on = PDGFRB (Homo sapiens, UniProt P09619); test = kinase activity, inhibitor; quantity = IC50; result = 40.3 ± 5.1 µM
Substance = CC(Cc1c[nH]c2ccccc12)(NC(=O)Nc1ccc([N+](=O)[O-])cc1)C(=O)NCC1(c2ccccn2)CCCCC1 (stereo not drawn); tested on = Gastrin-releasing peptide receptor; test = binding; conditions = literature species comparison; quantity = IC50; result = 1.3 ± 0.19 µM
Substance = C/C(=N\Cc1ccccc1)c1c(O)c2ccccc2oc1=O; tested on = Myosin-7 (MYH7, Bos taurus, UniProt Q9BE39); test = cardiac myosin activity, inhibitor; quantity = IC50; result = 8 µM
Substance = O=c1cc(-c2ccccc2)oc2cc(O)c(O)c(O)c12; tested on = XDH (Bos taurus, UniProt P80457); test = inhibitor; quantity = IC50; result = 46.2 µM
Substance = Nc1scc2c(C(=O)NC3CC3)nn(-c3ccc(Cl)cc3)c(=O)c12; tested on = Microtubule-associated protein tau, K18 fragment (244-369) (MAPT, Homo sapiens, UniProt P10636, P618L); test = tau K18 fibrillization (ThT), inhibitor; conditions = tau 20 µM, with: heparin; quantity = IC50; result = 8 ± 2.48 µM
Substance = C/C=C1\NC(=O)[C@H]2CSSCC/C=C/[C@H](CC(=O)N[C@H](C(C)C)C(=O)N2)OC(=O)[C@H](C(C)C)NC1=O; tested on = HDAC1 (Homo sapiens, UniProt Q13547); test = enzyme activity; quantity = IC50; result = 0.0002 µM
Substance = Nc1ncnc2nc[nH]c12; tested on = Mas-related G-protein coupled receptor member A (Mrgpra, Rattus norvegicus, UniProt Q7TN49); test = binding; test system = rat; quantity = IC50; result = 0.018 µM
Substance = CC(C)C[C@H](NC(=O)[C@@H](CC(=O)NO)Cc1ccccc1)C(=O)O; tested on = leucine aminopeptidase; test = inhibitor; conditions = range reported for several peptidases; quantity = IC50; result = 0.03 to 0.06 µM
Substance = CC(C)C[C@H](NC(=O)[C@H](CC(C)C)NC(=O)[C@@H](Cc1c[nH]c2ccccc12)NC(=O)[C@H](Cc1ccccc1)NC(=O)[C@@H](Cc1c[nH]c2ccccc12)NC(=O)[C@H](CCC(N)=O)NC(=O)[C@H](CCC(N)=O)NC(=O)[C@@H]1CCCN1C(=O)[C@H](CCCCN)NC(=O)[C@@H]1CCCN1C(=O)[C@H](N)CCCN=C(N)N)C(N)=O; tested on = Gastrin-releasing peptide receptor; test = binding; conditions = literature species comparison; quantity = IC50; result = > 10 µM
Substance = AALEQTER; tested on = DPP4 (Homo sapiens, UniProt P27487); test = enzyme activity, inhibitor; test system = peptide; quantity = IC50; result = 600 µM
Substance = N#Cc1cnc2ncncc2c1; tested on = PIM1 (Homo sapiens, UniProt P11309); test = kinase activity, inhibitor; quantity = IC50; result = 0.0114 µM
Substance = [βAla]WLAYPDSVPYR (N-βAla; βAla = NCCC(=O)O); tested on = Ephrin type-A receptor 2, ectodomain with ephrin-A5 (Mus musculus, UniProt Q03145); test = EphA2-ephrin-A5 interaction, ELISA; quantity = IC50; result = 0.39 µM
Substance = NCc1ccc(OCc2cccc(F)c2)cc1; tested on = Sodium channel protein type 9 subunit alpha (Mus musculus, UniProt Q62205); test = inactivated state ion current, inhibitor; test system = CAD; quantity = IC50; result = 31 µM
Substance = O=C1Cc2ccccc2N1; tested on = VEGF receptor 2 (Flk-1); test = inhibitor; quantity = IC50; result = 0.39 µM
Substance = Cc1ccc2nc(-c3ccc4nc(-c5ccc(NC(=O)c6ccc(N)cc6)cc5)sc4c3)sc2c1S(=O)(=O)O; tested on = Genome polyprotein NS3 helicase domain; test = RNA unwinding; quantity = IC50; result = 7 ± 1 µM
Substance = CCCCOc1ccc(CCC=C2SC(=O)N(CCN)C2=O)cc1; tested on = SPHK2 (Homo sapiens, UniProt Q9NRA0); test = enzyme activity, inhibitor; quantity = IC50; result = 33.7 µM
Substance = O=C(O)c1nn(Cc2ccc(Cl)cc2Cl)c2ccccc12; tested on = respiratory complex II; test = succinate-ubiquinone reductase activity, inhibitor; quantity = IC50; result = ~300 µM
Substance = C[C@@H]1COCCN1c1nc(-c2ccc(N)nc2)nc2c1C[C@@H]1COCCN21; tested on = Akt pSer473; test = phosphorylation, inhibitor; test system = A2058; quantity = IC50; result = 0.133 ± 0.016 µM
Substance = Cn1cncc1[C@@](N)(c1ccc(Cl)cc1)c1ccc2c(c1)c(-c1cccc(Cl)c1)cc(=O)n2C; tested on = Protein farnesyltransferase; conditions = mammalian enzyme; quantity = IC50; result = ~0.001 µM
Substance = COc1c2occc2c(OC)c2c(=O)cc(C)oc12; tested on = Cytochrome P450 1A1 (CYP1A1, Homo sapiens, UniProt P04798); test system = HEK293 overexpressing CYP1A1; quantity = IC50; result = 4.02 µM
Substance = CN1C(=O)c2cc(C(N)=O)nc3c(N)c(Cl)c(N)c1c23; tested on = NQO2 (Homo sapiens, UniProt P16083); test = inhibitor; quantity = IC50; result = 0.022 µM
Substance = C=CCC(Nc1ccccc1)C12C=CC(O1)C(C(=O)OC)=C2C(=O)OC (stereo not drawn); tested on = human tyrosyl-DNA phosphodiesterase 1; test = enzyme activity, inhibitor; test system = cellular; quantity = IC50; result = < 7 µM
Substance = C[C@]12CCC[C@@H]1[C@H]1CCc3cc(O)ccc3[C@@H]1CC2 (single isomer, unassigned); tested on = HT-22; test = cell protection; conditions = with: glutamate 10 mM; quantity = EC50; result = 0.239 µM
Substance = O=C(c1ccc(P(=O)(O)O)cc1O)c1[nH]c(Cl)c(Cl)c1-n1c(C(=O)c2ccc(P(=O)(O)O)cc2O)cc(Cl)c1Cl; tested on = Bcl-2-like protein 1, with Bim (BCL2L1, Homo sapiens, UniProt Q07817); test = inhibitor, ELISA; quantity = IC50; result = 27.3 ± 7.2 µM
Substance = Cc1ccc2nc(-c3ccc4nc(-c5ccc(NC(=O)c6ccc(Cl)c(Cl)c6)cc5)sc4c3)sc2c1S(=O)(=O)O; tested on = Genome polyprotein NS3 helicase domain; test = RNA unwinding; quantity = IC50; result = 3.9 ± 2 µM
Substance = N=C(N)c1ccccc1; tested on = Degenerin mec-4 (mec-4, Caenorhabditis elegans, UniProt P24612, A713T); conditions = concentration not given; quantity = IC50; result = 196 µM
Substance = COc1ccc2scc(CCNC(=O)CBr)c2c1; tested on = aralkylamine N-acetyltransferase human; test = enzyme activity, inhibitor; conditions = thirty minutes; quantity = IC50; result = 0.61 µM
Substance = Nc1nc2c(ncn2[C@@H]2O[C@@H]3COP(=O)(O)O[C@H]3[C@H]2O)c(=O)[nH]1; tested on = PDE1A; test = cyclic nucleotide hydrolysis, substrate or inhibitor, isothermal titration calorimetry; quantity = Km or Ki; result = 8.23 µM
Substance = COc1ccc(-c2ccc(-c3cn(C(=O)N4CCCCC4c4ccccc4)nn3)cc2)cc1 (stereo not drawn); tested on = Abhd6 (Mus musculus, UniProt Q8R2Y0); test = competitive ABPP; quantity = IC50; result = ~0.01 µM
Substance = NC(=O)c1nc(Nc2ccccc2)sc1NC(=O)C1CCCCC1; tested on = PIP5K1C (Homo sapiens, UniProt O60331); test = enzyme activity, inhibitor; conditions = 20 min preincubation; quantity = IC50; result = ~0.04 µM
Substance = O=C(O)c1ccc(S(=O)(=O)N(Cc2ccc(OC(F)(F)F)cc2)c2ncc(C(F)(F)F)cc2Cl)cc1; tested on = TRPM8 (Homo sapiens, UniProt Q7Z2W7); test = calcium influx, antagonist; test system = HEK (hTRPM8); conditions = with: 30 µM menthol; quantity = IC50; result = ~0.008 µM
Substance = CCc1cccc(CC)c1N(COC)C(=O)CCl; tested on = estrogen receptor, alligator; test = binding; test system = adult female oviduct tissue; quantity = IC50; result = 27.5 µM
Substance = Nc1ncnc2c1nc(Br)n2[C@@H]1O[C@@H]2COP(=O)(O)O[C@H]2[C@H]1O; tested on = PDE10; test = cyclic nucleotide hydrolysis, substrate or inhibitor, isothermal titration calorimetry; quantity = Km or Ki; result = 4.83 µM
Substance = OC[C@@H](O)[C@@H]1[C@H](O)[C@H](O)CN1Cc1ccccc1; tested on = human lysosomal α-mannosidase; test = enzyme activity, inhibitor; quantity = IC50; result = 1500 µM
Substance = OCCN1C[C@H](O)[C@@H](O)[C@H](O)[C@H]1CO; tested on = alpha-glucosidase; test = enzyme activity, inhibitor; quantity = IC50; result = 2.43 µM
Substance = O=C(OC[C@H]1O[C@@H](OC(=O)c2cc(O)c(O)c(OC(=O)c3cc(O)c(O)c(O)c3)c2)[C@H](OC(=O)c2cc(O)c(O)c(OC(=O)c3cc(O)c(O)c(O)c3)c2)[C@@H](OC(=O)c2cc(O)c(O)c(OC(=O)c3cc(O)c(O)c(O)c3)c2)[C@@H]1OC(=O)c1cc(O)c(O)c(OC(=O)c2cc(O)c(O)c(O)c2)c1)c1cc(O)c(O)c(OC(=O)c2cc(O)c(O)c(O)c2)c1; tested on = α-glucosidase; test = mixed-type inhibitor; quantity = IC50; result = 1.31 µM
Substance = curcumin; tested on = α-glucosidase; conditions = concentration not given; quantity = IC50; result = 9.08 µM
Substance = Nc1nc2c(ncn2[C@@H]2O[C@H](COP(=O)(O)OP(=O)(O)OP(=O)(O)O)[C@@H](O)[C@H]2O)c(=O)[nH]1; tested on = GLUD1 (Homo sapiens, UniProt P00367, H507Y); test = enzyme activity, allosteric inhibitor; conditions = mutant enzyme, reductive amination; quantity = IC50; result = 210 µM

A few entries again:
Substance = N#Cc1cnc2ncncc2c1; tested on = PIM1 (Homo sapiens, UniProt P11309); test = kinase activity, inhibitor; quantity = IC50; result = 0.0114 µM
Substance = O=C(O)c1cccc([C@H]2CCN[C@@H]2C(=O)O)c1; tested on = AMPA receptor (rat); test = binding, [3H]AMPA displacement; test system = rat synaptosomes; quantity = IC50; result = 51 µM
Substance = Cc1ccc2nc(-c3ccc4nc(-c5ccc(NC(=O)c6ccc(Cl)c(Cl)c6)cc5)sc4c3)sc2c1S(=O)(=O)O; tested on = Genome polyprotein NS3 helicase domain; test = RNA unwinding; quantity = IC50; result = 3.9 ± 2 µM
Substance = NCc1ccc(OCc2cccc(F)c2)cc1; tested on = Sodium channel protein type 9 subunit alpha (Mus musculus, UniProt Q62205); test = inactivated state ion current, inhibitor; test system = CAD; quantity = IC50; result = 31 µM
Substance = C[C@@H]1COCCN1c1nc(-c2ccc(N)nc2)nc2c1C[C@@H]1COCCN21; tested on = Akt pSer473; test = phosphorylation, inhibitor; test system = A2058; quantity = IC50; result = 0.133 ± 0.016 µM
